Assay results collected from several papers.
Parts stem from different laboratories: compare values within a part only. Several values in a cell are separate wells, animals, samples, runs or records.
UniProt P35348, sequence (whole entry, looked up): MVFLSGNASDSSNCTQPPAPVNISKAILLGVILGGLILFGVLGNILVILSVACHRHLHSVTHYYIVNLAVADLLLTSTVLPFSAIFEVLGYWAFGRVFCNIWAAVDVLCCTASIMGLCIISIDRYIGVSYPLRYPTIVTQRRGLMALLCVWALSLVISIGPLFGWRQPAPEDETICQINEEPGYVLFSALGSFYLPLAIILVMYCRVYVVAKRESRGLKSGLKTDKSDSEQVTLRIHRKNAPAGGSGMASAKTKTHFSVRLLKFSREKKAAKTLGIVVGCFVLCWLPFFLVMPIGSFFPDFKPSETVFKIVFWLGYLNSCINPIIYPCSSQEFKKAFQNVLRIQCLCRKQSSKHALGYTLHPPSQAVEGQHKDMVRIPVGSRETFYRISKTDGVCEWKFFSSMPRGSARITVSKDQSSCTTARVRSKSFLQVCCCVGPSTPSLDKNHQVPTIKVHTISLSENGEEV
UniProt P35367, sequence (whole entry, looked up): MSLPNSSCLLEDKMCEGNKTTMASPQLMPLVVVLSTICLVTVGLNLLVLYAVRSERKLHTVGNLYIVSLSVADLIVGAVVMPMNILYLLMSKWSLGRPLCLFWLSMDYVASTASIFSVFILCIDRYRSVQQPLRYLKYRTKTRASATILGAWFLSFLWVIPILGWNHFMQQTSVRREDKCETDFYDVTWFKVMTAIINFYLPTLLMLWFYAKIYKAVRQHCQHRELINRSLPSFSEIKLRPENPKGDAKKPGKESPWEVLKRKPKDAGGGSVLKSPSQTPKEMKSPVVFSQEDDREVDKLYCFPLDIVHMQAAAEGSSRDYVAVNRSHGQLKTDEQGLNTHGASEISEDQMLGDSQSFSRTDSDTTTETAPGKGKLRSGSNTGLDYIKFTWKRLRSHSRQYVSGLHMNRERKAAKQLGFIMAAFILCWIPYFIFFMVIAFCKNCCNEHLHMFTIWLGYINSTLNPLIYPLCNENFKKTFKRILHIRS
UniProt P21728, sequence (whole entry, looked up): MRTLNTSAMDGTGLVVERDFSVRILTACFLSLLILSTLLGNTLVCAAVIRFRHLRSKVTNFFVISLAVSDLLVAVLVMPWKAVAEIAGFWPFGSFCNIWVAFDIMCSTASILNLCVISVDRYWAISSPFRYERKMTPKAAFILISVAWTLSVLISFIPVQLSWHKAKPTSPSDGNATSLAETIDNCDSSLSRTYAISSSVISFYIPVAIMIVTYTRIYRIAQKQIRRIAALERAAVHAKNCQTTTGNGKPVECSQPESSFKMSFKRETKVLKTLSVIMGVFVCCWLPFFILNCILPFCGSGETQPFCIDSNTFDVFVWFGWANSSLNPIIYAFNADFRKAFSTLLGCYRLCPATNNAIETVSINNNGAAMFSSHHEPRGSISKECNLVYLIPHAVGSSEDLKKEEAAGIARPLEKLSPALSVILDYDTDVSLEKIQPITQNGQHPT
UniProt P08912, sequence (whole entry, looked up): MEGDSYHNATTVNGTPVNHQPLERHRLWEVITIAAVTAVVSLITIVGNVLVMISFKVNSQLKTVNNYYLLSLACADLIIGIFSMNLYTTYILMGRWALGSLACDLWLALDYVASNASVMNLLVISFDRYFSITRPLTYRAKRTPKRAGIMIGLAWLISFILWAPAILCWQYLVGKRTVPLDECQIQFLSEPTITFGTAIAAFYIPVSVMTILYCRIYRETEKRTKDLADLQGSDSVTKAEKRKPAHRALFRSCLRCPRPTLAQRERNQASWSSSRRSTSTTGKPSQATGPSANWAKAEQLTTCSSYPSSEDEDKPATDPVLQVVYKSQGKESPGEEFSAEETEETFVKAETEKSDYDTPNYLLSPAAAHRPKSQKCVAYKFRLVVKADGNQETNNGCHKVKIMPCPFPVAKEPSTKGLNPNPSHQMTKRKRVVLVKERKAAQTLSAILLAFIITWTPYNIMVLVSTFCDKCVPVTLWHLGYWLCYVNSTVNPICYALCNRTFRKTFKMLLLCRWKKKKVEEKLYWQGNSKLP

Series 1 — read-out: cell-free assay; tested at: 10 µM; measurement: inhibition
Compound: CNCc1ccccc1-c1csc([C@@H](C)Nc2nc(C)nc3cc(OC)c(OC)cc23)c1
Muscarinic acetylcholine receptor M5 (CHRM5, Homo sapiens, UniProt P08912): 64.8%
5-hydroxytryptamine receptor 7 (HTR7, Homo sapiens, UniProt P34969): 76.2%
Histamine H1 receptor (HRH1, Homo sapiens, UniProt P35367): 49.4%
Sigma non-opioid intracellular receptor 1 (SIGMAR1, Homo sapiens, UniProt Q99720): 22.6%
Alpha-1A adrenergic receptor (ADRA1A, Homo sapiens, UniProt P35348): 71.6%
5-hydroxytryptamine receptor 6 (HTR6, Homo sapiens, UniProt P50406): -1.41%
Alpha-2A adrenergic receptor (ADRA2A, Homo sapiens, UniProt P08913): 91.7%
D(1A) dopamine receptor (DRD1, Homo sapiens, UniProt P21728): 82.7%

Series 2 — read-out: enzyme activity; action: inhibitor; tested at: 77 µM; reference: untreated; measurement: remaining activity
Target: DNA polymerase theta, ATPase domain (POLQ, Homo sapiens, UniProt O75417)
UniProt O75417, sequence (whole entry, unmodified, looked up): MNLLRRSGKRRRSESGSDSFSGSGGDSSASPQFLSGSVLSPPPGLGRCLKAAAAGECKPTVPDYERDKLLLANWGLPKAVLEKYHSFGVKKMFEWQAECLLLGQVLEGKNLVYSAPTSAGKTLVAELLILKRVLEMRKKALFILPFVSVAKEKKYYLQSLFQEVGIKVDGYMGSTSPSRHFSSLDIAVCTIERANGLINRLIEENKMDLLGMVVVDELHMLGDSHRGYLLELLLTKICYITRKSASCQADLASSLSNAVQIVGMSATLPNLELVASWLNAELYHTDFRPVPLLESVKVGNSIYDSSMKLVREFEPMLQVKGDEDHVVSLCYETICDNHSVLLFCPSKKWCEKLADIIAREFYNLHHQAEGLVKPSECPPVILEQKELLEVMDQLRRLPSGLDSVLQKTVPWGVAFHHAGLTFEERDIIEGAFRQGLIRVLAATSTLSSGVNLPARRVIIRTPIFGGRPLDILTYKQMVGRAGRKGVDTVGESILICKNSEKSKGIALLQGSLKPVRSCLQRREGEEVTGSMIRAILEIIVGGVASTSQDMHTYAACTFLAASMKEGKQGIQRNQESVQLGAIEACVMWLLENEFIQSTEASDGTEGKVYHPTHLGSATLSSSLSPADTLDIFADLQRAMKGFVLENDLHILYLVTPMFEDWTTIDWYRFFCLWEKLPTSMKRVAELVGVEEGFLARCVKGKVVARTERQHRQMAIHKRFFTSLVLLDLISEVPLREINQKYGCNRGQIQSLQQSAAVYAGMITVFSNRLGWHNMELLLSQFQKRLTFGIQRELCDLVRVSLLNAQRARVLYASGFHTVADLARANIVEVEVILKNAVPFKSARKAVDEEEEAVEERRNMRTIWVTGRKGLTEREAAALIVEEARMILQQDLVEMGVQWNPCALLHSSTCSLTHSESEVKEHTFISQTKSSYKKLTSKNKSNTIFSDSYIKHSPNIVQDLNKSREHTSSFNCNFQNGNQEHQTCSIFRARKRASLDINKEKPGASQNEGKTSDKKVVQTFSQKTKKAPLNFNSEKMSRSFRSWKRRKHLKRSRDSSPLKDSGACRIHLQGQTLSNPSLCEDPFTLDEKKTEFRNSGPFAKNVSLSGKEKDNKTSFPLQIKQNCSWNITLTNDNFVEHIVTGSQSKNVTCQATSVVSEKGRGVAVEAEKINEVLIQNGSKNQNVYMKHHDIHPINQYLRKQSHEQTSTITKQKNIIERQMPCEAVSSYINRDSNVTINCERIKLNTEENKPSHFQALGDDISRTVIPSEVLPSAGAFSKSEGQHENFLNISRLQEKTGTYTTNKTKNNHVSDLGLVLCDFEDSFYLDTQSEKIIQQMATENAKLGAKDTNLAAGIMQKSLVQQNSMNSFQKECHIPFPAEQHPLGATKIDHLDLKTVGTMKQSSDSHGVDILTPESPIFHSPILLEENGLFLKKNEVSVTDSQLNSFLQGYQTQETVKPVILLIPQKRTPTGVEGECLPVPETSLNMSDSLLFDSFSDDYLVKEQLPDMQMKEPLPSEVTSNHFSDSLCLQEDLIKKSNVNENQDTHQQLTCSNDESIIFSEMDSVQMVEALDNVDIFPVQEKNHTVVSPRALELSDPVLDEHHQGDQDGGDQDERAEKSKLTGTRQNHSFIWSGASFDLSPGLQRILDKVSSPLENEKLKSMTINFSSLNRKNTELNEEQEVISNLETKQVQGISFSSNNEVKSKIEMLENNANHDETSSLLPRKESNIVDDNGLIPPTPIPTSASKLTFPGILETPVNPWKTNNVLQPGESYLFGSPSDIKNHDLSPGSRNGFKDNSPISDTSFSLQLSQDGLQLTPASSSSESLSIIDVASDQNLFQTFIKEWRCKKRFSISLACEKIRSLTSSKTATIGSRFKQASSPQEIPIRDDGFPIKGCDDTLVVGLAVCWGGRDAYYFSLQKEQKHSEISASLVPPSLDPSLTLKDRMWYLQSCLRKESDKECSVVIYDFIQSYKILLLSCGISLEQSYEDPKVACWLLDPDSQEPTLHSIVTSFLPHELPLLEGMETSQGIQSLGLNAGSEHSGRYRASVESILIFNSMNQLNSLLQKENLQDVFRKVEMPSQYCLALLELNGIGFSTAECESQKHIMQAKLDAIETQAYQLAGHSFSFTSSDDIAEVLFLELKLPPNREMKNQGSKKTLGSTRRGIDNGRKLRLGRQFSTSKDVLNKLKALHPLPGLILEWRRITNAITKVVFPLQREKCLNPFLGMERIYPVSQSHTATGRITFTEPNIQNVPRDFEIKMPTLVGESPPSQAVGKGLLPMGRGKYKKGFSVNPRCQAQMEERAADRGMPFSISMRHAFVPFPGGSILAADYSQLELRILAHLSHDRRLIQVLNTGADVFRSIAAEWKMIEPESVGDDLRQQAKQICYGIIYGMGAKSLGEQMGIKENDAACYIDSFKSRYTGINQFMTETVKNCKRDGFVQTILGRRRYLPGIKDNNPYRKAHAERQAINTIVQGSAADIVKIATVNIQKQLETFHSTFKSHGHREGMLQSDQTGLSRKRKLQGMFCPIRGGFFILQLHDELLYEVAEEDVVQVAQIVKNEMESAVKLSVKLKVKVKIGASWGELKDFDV
NC(=O)NC1NC(=O)NC1=O (stereo not shown): 89.9%
C[C@]12CC[C@@H]3c4ccc(O)cc4CC[C@H]3[C@@H]1C[C@@H](O)[C@@H]2O: 100% and 94%
Clc1ccc(N2CCN(Cc3c[nH]c4ncccc34)CC2)cc1: 91.2%
O=C(O)CNC(=O)C(CS)Cc1ccccc1 (stereo not shown): 93%

Series 3 — read-out: enzyme activity; action: inhibitor; tested at: 10 µM; measurement: inhibition
Target: Calcium/calmodulin-dependent protein kinase type II subunit alpha (CAMK2A, Homo sapiens, UniProt Q9UQM7)
UniProt Q9UQM7, sequence (whole entry, looked up): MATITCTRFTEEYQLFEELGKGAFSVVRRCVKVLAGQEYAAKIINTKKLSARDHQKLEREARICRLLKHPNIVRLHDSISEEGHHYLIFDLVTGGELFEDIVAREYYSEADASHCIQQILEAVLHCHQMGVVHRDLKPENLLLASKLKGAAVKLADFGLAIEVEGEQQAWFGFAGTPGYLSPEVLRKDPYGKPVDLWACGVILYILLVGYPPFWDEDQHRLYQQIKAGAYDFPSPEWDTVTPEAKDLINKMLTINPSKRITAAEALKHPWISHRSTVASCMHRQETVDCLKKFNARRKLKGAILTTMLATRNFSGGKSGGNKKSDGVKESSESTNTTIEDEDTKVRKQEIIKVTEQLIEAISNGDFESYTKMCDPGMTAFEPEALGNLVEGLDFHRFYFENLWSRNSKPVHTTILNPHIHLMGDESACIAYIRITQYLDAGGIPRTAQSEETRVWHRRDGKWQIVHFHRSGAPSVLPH
CC1(C)S[C@@H]2[C@H](N=CN3CCCCCC3)C(=O)N2[C@H]1C(=O)O: -6%
O=c1[nH]c(=O)n(C2CCCO2)cc1F (stereo not shown): 0%
CC[C@H](O)C(=O)O: 7%
C=CCSC[C@H](N)C(=O)O: -19%
CN(C)C(=O)c1ccc(S(=O)(=O)c2ccc(NC(=O)[C@@](C)(O)C(F)(F)F)c(Cl)c2)cc1: -16%
C/C=C1/[C@H](O[C@@H]2O[C@H](CO)[C@@H](O)[C@H](O)[C@H]2O)OC=C(C(=O)OC)[C@H]1CC(=O)OCCc1ccc(O)c(O)c1: 25%
O=C(O)CCc1ccc(O)cc1: 14%
COc1ccc(-c2cc(=O)c3c(OC)c(OC)c(OC)c(OC)c3o2)cc1O: 7%
COC(=O)CC(C)=O: -7%
CC[C@]12CCCN3CCc4c(n(c5ccccc45)C(=O)C1)[C@@H]32: -5%

Series 4 — species: human; sample: microsomes or S9; tested at: 2 µM; time: 0.5 h; measurement: remaining compound
CC(=O)Nc1cccc(C2CCN(CCCn3nc(S(=O)(=O)c4ccc(C)cc4)c4ccccc4c3=O)CC2)c1: 0.277%
CC(C)n1c(C(O)c2nc3ccccc3n2C)nc2ccccc21 (stereo not shown): 63.9%
Cc1ccc(OCCn2c(C)c(/C=N/n3cnnc3)c3ccccc32)cc1C: 29.7%
COc1ccc(-c2c(-c3ccccc3)nn(-c3ccc(C)cc3)c2N)cc1OC: 74%
CCCn1ccnc1CN(C)Cc1cnn(-c2cccc(OC)c2)c1: 4.81%
Cc1cccc(C)c1NS(=O)(=O)c1c(C)nc(O)nc1O: 51.1%
CN(Cc1cc(Br)cn1C)c1ncccn1: > 100%
COCCN(C)C(=O)Cn1c(-c2ccccc2)nn(-c2cccc(C)c2)c1=O: 54.4%
O=S(=O)(Nc1ccc(Br)cc1)C1CCCCC1O (stereo not shown): 63%

Some of these lines once more (series 2):
Clc1ccc(N2CCN(Cc3c[nH]c4ncccc34)CC2)cc1: 91.2%
O=C(O)CNC(=O)C(CS)Cc1ccccc1 (stereo not shown): 93%
C[C@]12CC[C@@H]3c4ccc(O)cc4CC[C@H]3[C@@H]1C[C@@H](O)[C@@H]2O: 100% and 94%
NC(=O)NC1NC(=O)NC1=O (stereo not shown): 89.9%
